Measured values gathered from unrelated publications.
Compare with care: the assays were run in different laboratories. Several values in a cell are separate wells, animals, samples, runs or records. ± marks the error that the study gave.

SMILES	tested on	assay	system	setting	scale	endpoint	value
O=C(O)CNC(=O)Cc1ccccc1	–	–	ventricular cardiomyocytes, C57BL/6 mouse	dose not given, 0.32 s	–	sarcomere length	1.72 µm
Nc1nc2c(ncn2[C@@H]2O[C@H](COP(=O)(O)OP(=O)(O)O[C@H]3O[C@H](CO)[C@@H](O)[C@H](O)[C@@H]3O)[C@@H](O)[C@H]2O)c(=O)[nH]1	–	binding, MIDAS equilibrium dialysis LC-MS	A2AR-BRIL thermostabilized	concentration not given	relative to: no-protein control	log2 fold change	-0.169
O=C(O)CC[C@H](NC(=O)N[C@@H](CCCCNC(=O)[C@H](Cc1ccc2ccccc2c1)NC(=O)CCCCCNC(=O)CN1CCN(CC(=O)O)CCN(CC(=O)O)CCN(CC(=O)O)CC1)C(=O)O)C(=O)O [gallium-68 labelled]	–	gamma counting	mouse, PC-3 xenograft, spleen	intravenous, 3.7 MBq, 2 h	–	tissue uptake	1.63 ± 0.12 %ID/g
CCS(=O)(=O)c1nc(C2CC2)cc(C(F)(F)F)n1	transportin-1/2	FUS nuclear import, high content imaging	HeLa Kyoto reporter	15.8 µM, 2 h	–	cells with nuclear reporter	94.6% and 97.7%
NC(=O)c1cnc2[nH]ccc2c1N[C@@H]1[C@@H]2CC3C[C@H]1C[C@@](O)(C3)C2	–	flow cytometry	Japanese healthy men, blood	oral, 100 mg twice daily, 72 h after day 7 dose	relative to: baseline	CD4+ effector memory change	0.18%
CC[S+]([O-])c1nc(-c2ccccc2)cc(C(F)(F)F)n1 (stereo not drawn)	transportin-1/2	FUS nuclear import, high content imaging	HeLa Kyoto reporter	1.58 µM, 2 h	–	cells with nuclear reporter	93.2% and 95.7%
Nc1nc(-c2ccccc2)nc2[nH]nc(Nc3ccc(C(F)(F)F)cc3)c12	coxsackievirus B3	–	31-1-93, NMRI mice, CVB3 chronic myocarditis	oral, 100 mg/kg twice daily, day 13, dosed days 3 to 10, score scale 0 to 7	direction not given	clinical score	0.9
CCOCC(=O)N1CCO[C@H](C(=O)NCc2nc(-c3ccc(C)nc3)cs2)C1	Plasmodium falciparum	SYBR Green growth	asexual blood-stage parasites, 3D7	72 h	–	EC50	100 ± 14 nM
CC(=CC(=O)O)CC(=O)O	–	binding, MIDAS equilibrium dialysis LC-MS	A2AR-BRIL thermostabilized	concentration not given	relative to: no-protein control	log2 fold change	-0.0582
COc1cnc2cccc(N3CCc4c(cc(Cn5ccnc5C)cc4-c4cn(C)nc4C(F)(F)F)C3=O)c2c1	NCI-H1838	cell growth, inhibitor	–	120 h	–	EC50	22.7 nM
Cc1cn([C@@H]2O[C@H](CO)[C@@H](O)[C@H]2O)c(=O)[nH]c1=O	–	binding, MIDAS equilibrium dialysis LC-MS	A2AR-BRIL thermostabilized	concentration not given	relative to: no-protein control	log2 fold change	-0.0532
CCn1cc(-c2cc(Cn3ccnc3)cc3c2CCN([C@H](c2cc(OC)ccn2)C2CC2)C3=O)c(C(F)(F)F)n1	WM-115	cell growth, inhibitor	–	120 h	–	EC50	> 30000 nM
CSc1cc(Oc2ccnc3[nH]c(=O)cnc23)ccc1NC(=O)Nc1cc(C(C)(C)C)nn1-c1ccccc1	patient-derived cell line clone A	RPPA, item: phosphorylated Rb	human	1 µM, 4 h	relative to: DMSO	phospho ratio	0.7
CC(C)C[C@H](NC(=O)C[C@H](O)[C@H](CC(C)C)NC(=O)[C@H](Cc1c[nH]cn1)NC(=O)CNC(=O)[C@@H](NC(=O)[C@H](C)NC(=O)[C@H](Cc1c[nH]c2ccccc12)NC(=O)[C@H](CCC(N)=O)NC(=O)[C@@H](Cc1ccccc1)NC(=O)COCCOCCNC(=O)CN1CCN(CC(=O)O)CCN(CC(=O)O)CCN(CC(=O)O)CC1)C(C)C)C(N)=O [lutetium-177 labelled]	–	–	female BALB/c nu/nu mice, muscle	intravenous, 50 pmol, 24 h	–	tissue uptake	0.007 ± 0.002 %ID/g
O=C(O)CO	–	binding, MIDAS equilibrium dialysis LC-MS	A2AR-BRIL thermostabilized	concentration not given	relative to: no-protein control	log2 fold change	-0.674
CC(C)n1ncc2c(C(=O)NCC3(C)CNC3)cc(C3CC3)nc21	Enterovirus D68	viral replication	RD, recombinant wild-type US/MO/14-18947	0.3 µM	relative to: untreated	plaque area	0%
COCC(=O)N1CCC[C@H](C(=O)NCc2cccc(-c3ccccc3)n2)C1	Plasmodium falciparum	SYBR Green growth	asexual blood-stage parasites, 3D7	72 h	–	EC50	1300 ± 320 nM
Cn1cc(-c2ccc(-c3cncc(Cl)c3N3CCC4(CCNC4=O)CC3)cc2)cn1	COLO 205	gene expression, microarray, item: EIF4EBP1 mRNA	–	concentration not given, 2 h	relative to: untreated cells	log2 fold change	2.03
N#Cc1ccc2c(c1)[C@H]1CCCN(C(=O)c3ccc4[nH]cnc4c3)[C@H]1C2	–	–	T2DM patients with overweight or obesity, plasma	oral, 240 mg, day 15 (360 h), multiple dosing, mean	–	fasting plasma insulin	16.6 mU/L
O=c1[nH]c(=O)c2nc[nH]c2[nH]1	–	binding, MIDAS equilibrium dialysis LC-MS	A2AR-BRIL thermostabilized	concentration not given	relative to: no-protein control	log2 fold change	0.245
COCC(=O)N1CCC[C@H](C(=O)NCc2nc(C3=CCN(C)CC3)cs2)C1	Plasmodium falciparum	SYBR Green growth	asexual blood-stage parasites, 3D7	72 h	–	EC50	> 5000 nM
NCC(O)CCC(N)C(=O)O (racemic)	–	binding, MIDAS equilibrium dialysis LC-MS	A2AR-BRIL thermostabilized	concentration not given	relative to: no-protein control	log2 fold change	-0.0925
O=C(/C=C/C=C/C=C/C1CCCCC1)NC1=C[C@@](O)(/C=C/C=C/C=C/C(=O)NC2=C(O)CCC2=O)[C@@H]2O[C@@H]2C1=O	hep3b217	cell growth, inhibitor, CellTiter-Glo luminescence	–	78 h	relative to: day 0 cell count	GI50	17200 nM
O=C(O)[C@H](O)[C@@H](O)[C@H](O)[C@H](O)COP(=O)(O)O	–	binding, MIDAS equilibrium dialysis LC-MS	A2AR-BRIL thermostabilized	concentration not given	relative to: no-protein control	log2 fold change	-0.167
CCn1cc(-c2cc(Cn3ccoc3=N)cc3c2CCN([C@@H](C)c2cc(OC)ccn2)C3=O)c(C(F)(F)F)n1	RL	cell growth	–	120 h	–	EC50	20.8 nM
C[C@H](CCC(=O)O)[C@H]1CC[C@H]2[C@@H]3[C@H](O)C[C@@H]4C[C@H](O)CC[C@]4(C)[C@H]3C[C@H](O)[C@]12C	–	binding, MIDAS equilibrium dialysis LC-MS	A2AR-BRIL thermostabilized	concentration not given	relative to: no-protein control	log2 fold change	10.8
OC(CCN1CCCCC1)(c1ccccc1)C1CC2C=CC1C2 (stereo not drawn)	–	resting-state EEG	healthy elderly humans	oral, 2 mg, eyes open, LS mean	–	gamma power, EEG, Pz-O1	0.9 µV²

A few entries again:
SMILES	tested on	assay	system	setting	scale	endpoint	value
Cn1cc(-c2ccc(-c3cncc(Cl)c3N3CCC4(CCNC4=O)CC3)cc2)cn1	COLO 205	gene expression, microarray, item: EIF4EBP1 mRNA	–	concentration not given, 2 h	relative to: untreated cells	log2 fold change	2.03
NCC(O)CCC(N)C(=O)O (racemic)	–	binding, MIDAS equilibrium dialysis LC-MS	A2AR-BRIL thermostabilized	concentration not given	relative to: no-protein control	log2 fold change	-0.0925
Nc1nc2c(ncn2[C@@H]2O[C@H](COP(=O)(O)OP(=O)(O)O[C@H]3O[C@H](CO)[C@@H](O)[C@H](O)[C@@H]3O)[C@@H](O)[C@H]2O)c(=O)[nH]1	–	binding, MIDAS equilibrium dialysis LC-MS	A2AR-BRIL thermostabilized	concentration not given	relative to: no-protein control	log2 fold change	-0.169
